{"data": "Results from different studies", "B1": "UGT1A9 (Homo sapiens, UniProt O60656); chain GKLLVVPMDGSHWFTMRSVVEKLILRGHEVVVVMPEVSWQLGRSLNCTVKTYSTSYTLEDLDREFKAFAHAQWKAQVRSIYSLLMGSYNDIFDLFFSNCRSLFKDKKLVEYLKESSFDAVFLDPFDNCGLIVAKYFSLPSVVFARGILCHYLEEGAQCPAPLSYVPRILLGFSDAMTFKERVRNHIMHLEEHLLCHRFFKNALEIASEILQTPVTEYDLYSHTSIWLLRTDFVLDYPKPVMPNMIFIGGINCHQGKPLPMEFEAYINASGEHGIVVFSLGSMVSEIPEKKAMAIADALGKIPQTVLWRYTGTRPSNLANNTILVKWLPQNDLLGHPMTRAFITHAGSHGVYESICNGVPMVMMPLFGDQMDNAKRMETKGAGVTLNVLEMTSEDLENALKAVINDKSYKENIMRLSSLHKDRPVEPLDLAVFWVEFVMRHKGAPHLRPAAHDLTWYQYHSLDVIGFLLAVVLTVAFITFKCCAYGYRKCLGKKGRVKKAHKSKTH", "note": "Lines come from different studies, so protocols differ. ± marks the error that the study gave.", "chain of UniProt P52926 (whole entry, looked up)": "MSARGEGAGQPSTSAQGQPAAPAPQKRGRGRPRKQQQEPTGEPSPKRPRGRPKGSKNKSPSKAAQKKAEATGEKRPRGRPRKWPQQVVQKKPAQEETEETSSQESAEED", "chain of UniProt D2W6T1 (whole entry, looked up)": "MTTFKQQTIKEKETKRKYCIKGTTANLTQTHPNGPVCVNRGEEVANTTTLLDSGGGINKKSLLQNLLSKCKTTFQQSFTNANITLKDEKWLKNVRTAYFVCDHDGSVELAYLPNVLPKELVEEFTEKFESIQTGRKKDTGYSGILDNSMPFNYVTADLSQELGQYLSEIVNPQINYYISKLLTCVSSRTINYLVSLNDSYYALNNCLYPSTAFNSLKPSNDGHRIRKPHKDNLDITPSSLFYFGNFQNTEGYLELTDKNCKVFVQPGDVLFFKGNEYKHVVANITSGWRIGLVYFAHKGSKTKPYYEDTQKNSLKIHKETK", "chain of UniProt P0A6X3 (whole entry, looked up)": "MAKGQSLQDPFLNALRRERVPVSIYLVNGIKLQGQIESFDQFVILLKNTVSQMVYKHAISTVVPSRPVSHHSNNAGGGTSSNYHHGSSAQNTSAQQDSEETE"}
{"Molecule": "ATATTGCGCATTATT (dsDNA)", "target or system": "HMGA2 full length assumed (Homo sapiens, UniProt P52926)", "assay": "EMSA", "system": "double-stranded DNA, one strand shown", "measurement": "Ka", "result": "3.9e+07 M⁻¹"}
{"Molecule": "TCTTCTGTGCACTCTTC (dsDNA)", "target or system": "SF3 helicase domain-containing protein 752-844 (Saccharolobus islandicus, UniProt Q54324)", "assay": "fluorescence anisotropy", "system": "double-stranded DNA, one strand shown", "measurement": "K1/2", "result": "2100 nM"}
{"Molecule": "GAGUUGAGUUGAGUUGAGUUGAGUUGAGUUGAGUUGAGUUGAGUUGAGUUGAGUU (ssRNA; single strand)", "target or system": "mtrB full length assumed D39A (Bacillus subtilis, UniProt P19466)", "assay": "filter binding", "setting": "added: L-tryptophan 1 mM", "measurement": "Kd", "result": "0.25 ± 0.05 nM"}
{"Molecule": "GGGAGGGAGGGAGAGGGA (ssRNA)", "target or system": "EXOSC3 fragment (Homo sapiens)", "assay": "ELISA", "setting": "300 nM", "measurement": "K1/2", "result": "100 nM"}
{"Molecule": "AGCTTGAGAAGGAGGCGTGGCCAACGCATG (dsDNA)", "target or system": "KLF16 fragment (Homo sapiens)", "assay": "EMSA", "system": "double-stranded DNA, one strand shown", "how to read": "reference: ROB consensus, higher = more binding", "measurement": "relative binding", "result": "5 fold"}
{"Molecule": "GGGAGAGUAGAUGCUCAUUCCAUCUCUUAUGUUCGCCUUAGUGCCUCAUAAACUCCGGAAUGACGCAGAGCCGUUUACGGUGCUUAUCGUCCACUGACAGAUGUCGCUUAUGCCUCAUCAGACACCAUGGACACAACGUUGAGUGAAGCACCCACUUGUUGUCAUACAGACCUGUUUUAACGCCUGCUCCGUAAUAAGAGCAGGCGUU (ssRNA (Escherichia coli); three stem loops)", "target or system": "hfq (Escherichia coli, UniProt P0A6X3)", "assay": "EMSA", "measurement": "binding", "result": "binds weakly"}
{"Molecule": "CTGTGCTCA (ssDNA)", "target or system": "SF3 helicase domain-containing protein 40-370 (Saccharolobus islandicus, UniProt Q54324)", "assay": "solid-state NMR", "system": "single-stranded DNA", "setting": "added: Mg2+ 10 mM", "measurement": "binding", "result": "binds"}
{"Molecule": "B1 (UGT1A9)", "target or system": "COc1c(O)cc2oc(-c3ccccc3)cc(=O)c2c1O", "assay": "steady-state kinetics", "setting": "pH 7.4, 37 °C", "measurement": "Vmax/Km", "result": "866 µL/min/mg"}
{"Molecule": "TGGAACGGAATTCT (dsDNA; blunt, 5mC, 5-BrdU)", "target or system": "TET1 1-321 (Naegleria gruberi, UniProt D2W6T1)", "assay": "X-ray crystallography", "system": "double-stranded DNA, one strand shown", "measurement": "binding", "result": "binds"}
{"Molecule": "CGGACACTGGTATAAACATGCACCGGCTTTCAATTCTATAAGAGATTATCTCAGTCTTATTGTCGAGGAGTAGTGGTAGGAGTGATACCTTTCAATTCTATAAGAGATTATCGGAAGAGACAAGACTCTACAGTACAATATGCCCCAGATG (dsDNA (Sulfolobus solfataricus))", "target or system": "CRISPR-associated protein full length assumed (Saccharolobus solfataricus, UniProt Q97ZW9)", "assay": "competition", "system": "double-stranded DNA, one strand shown", "setting": "stronger binding", "measurement": "binding", "result": "binds"}
{"note": "Some of these lines once more:"}
{"Molecule": "B1 (UGT1A9)", "target or system": "COc1c(O)cc2oc(-c3ccccc3)cc(=O)c2c1O", "assay": "steady-state kinetics", "setting": "pH 7.4, 37 °C", "measurement": "Vmax/Km", "result": "866 µL/min/mg"}
